Results from different studies.
Numbered parts are unrelated; each lists some results of a single study.

Sample 1 — technique: protein-binding microarray; molecule type: double-stranded DNA, one strand shown; sample: in vitro; concentration: 0.8 µM; notes: whole 60-bp probe, no competitor; reading: higher = stronger binding; shared flanks, not repeated: … GTCTTGATTCGCTTGACGCTGCTG
Target: Centromere-binding protein 1, full length, N-terminal tag (CBF1, Saccharomyces cerevisiae, UniProt P17106, residues 1-351)
Sequence of UniProt P17106 (whole entry, looked up): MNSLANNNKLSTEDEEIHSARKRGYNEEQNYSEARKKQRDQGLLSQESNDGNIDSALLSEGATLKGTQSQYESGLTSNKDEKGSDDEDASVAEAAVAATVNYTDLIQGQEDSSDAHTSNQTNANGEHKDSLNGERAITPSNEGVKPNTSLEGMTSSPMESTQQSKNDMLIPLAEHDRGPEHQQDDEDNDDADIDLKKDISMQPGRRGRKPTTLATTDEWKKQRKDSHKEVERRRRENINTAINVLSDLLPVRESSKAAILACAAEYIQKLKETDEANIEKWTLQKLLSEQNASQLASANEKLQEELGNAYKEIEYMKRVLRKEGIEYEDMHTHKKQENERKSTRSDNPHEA
Strand | fluorescence intensity [a.u.]
CTAGAAACAGATCTTGATGTTACAGCAAGGTCATTC | 481
TGTACGAAGCTATTTAGTGTGATTATAGTAGTTAGG | 523
CTACCATGCCAATCAAACGTGCAACAAAGATGATTC | 543
CTAGTATATCTATATTCCGTGATGCCTTTGTGGTTC | 557
GAACCTTAAACGATGGACGTGGTGTGTGAATGTTAG | 538

Sample 2 — technique: protein binding microarray; molecule type: double-stranded DNA, one strand shown; sample: in vitro; concentration: not given; baseline: not given; reading: higher = stronger binding
Target: Histone acetyltransferase KAT6A, winged helix 1, GST fusion (KAT6A, Homo sapiens, UniProt Q92794, residues 1-85)
Notes: 8-mer, flanks averaged, mean of 2 arrays, mostly near background
Residues (chain): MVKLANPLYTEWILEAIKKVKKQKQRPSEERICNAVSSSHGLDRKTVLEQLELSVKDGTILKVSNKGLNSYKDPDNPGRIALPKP
Strand | E-score
CATGTACG | -0.0291
GTCGCCCA | 0.144
CATGAGTC | -0.0984
ATTGTTTC | 0.00751
ACTCGGAG | -0.082
AGCATACC | -0.116
AGTCATTC | -0.147

Sample 3 — technique: aptamer microarray, sandwich; molecule type: DNA with 2'F-ANA; sample: in vitro; concentration: 200 nM; with: Cy3 exosite-II aptamer, 400 nM; reading: higher = stronger binding; strand: GGTTGGTGTGGTTGG
Target: Prothrombin, mature alpha-thrombin (F2, Homo sapiens, UniProt P00734)
Notes: whole 15-mer aptamer, many near background
Modification | mean fluorescence intensity [a.u.]
2'F-ANA at 2 5 6 8 11 15 | 65.3
2'F-ANA at 2 3 4 6 9 14 15 | 202
2'F-ANA at 2 4 6 8 11 14 15 | 85.9
2'F-ANA at 4 8 9 10 11 13 15 | 266
2'F-ANA at 5 6 8 9 11 13 15 | 76

Further values, each from its own experiment
Molecule | target | test | test system | setting | scale | endpoint | result
PhoQ, residues 284 288 289 292 302 303 AGGLSV | PhoP, residues 12 14 15 18 19 NHFRA (Escherichia coli, UniProt P23836) | Sort-seq, measured: YFP reporter | E. coli | PhoQ-PhoP variant library, with: 10 µM Mg2+ | baseline: high Mg2+ state, higher = stronger signaling | fold induction | 0.977

Excerpt of the above (sample 1):
Strand | fluorescence intensity [a.u.]
CTACCATGCCAATCAAACGTGCAACAAAGATGATTC | 543
